{"data": "Results pooled from the literature", "note": "Parts stem from different laboratories: compare values within a part only. Substitutions count along the parent as printed."}
{"data": "Sample 1", "target": "CCNB1, cyclin fold, Cln2 fusion (human)", "method": "yeast growth competition, sequencing", "sample": "yeast", "setting": "weak parent motif", "reference": "not given", "reading": "higher = stronger binding", "starting sequence": "RP1L1 docking peptide (human); TLGLGPLSFTLED"}
{"Substitution": "D13A", "normalised enrichment score": -0.162}
{"Substitution": "T1A", "normalised enrichment score": -0.0162}
{"Substitution": "E12A", "normalised enrichment score": 0.0674}
{"data": "Sample 2", "target": "Fragile X messenger ribonucleoprotein 1, C-terminal low-complexity region (Fmr1, Mus musculus, UniProt P35922)", "method": "RNA Bind-n-Seq", "form": "RNA", "sample": "in vitro", "concentration": "200 nM", "setting": "whole 134-nt RNA, ends assumed", "with": "150 mM KCl", "reference": "input library", "reading": "higher = stronger binding", "shared flanks, not repeated": "GGGAGUUCUACAGUCCGACGAUC … UGGAAUUCUCGGGUGUCAAGG"}
{"Sequence": "GCAGGAAGUAAAAACAAAUGGAAAUGCUUCGGAUAGUGGCAGGGCUGGGGGUUGCUAAGGAAAGGGUGGGAUGGGAGUGGGUAAAGAGUU", "log2 enrichment": 0.312}
{"Sequence": "UGGGAGGUGGAUUUUGUUUAUUUUUUUAGCUCAUUUCCAGGGGUGGGAAUUUUUUUUUAAUAUGUGUCAUGAAUAAAGUGGUUUUUGAAA", "log2 enrichment": 0.136}
{"Sequence": "GUCCUGUGCUACACAUCGUAUGUACCGAAUCAAAUUUAAACCCCCCCAAACCCCCAAAAAAGUAUUAUGUUACGCCGUUCGGAUCUGCAC", "log2 enrichment": -0.217}
{"Sequence": "UCCUGUGCUACACAUCGUAUGUACCGAAUCGGGGAAAGGGGAAAGGGGAAAAAAAGGGGAAAGUAUUAUGUUACGCCGUUCGGAUCUGCA", "log2 enrichment": 0.336}
{"Sequence": "AAGUCCUGUGCUACACAUCGUAUGUACCGAAUCGGGAAAAGGGAAAAGGAAAAGGGAAAGUAUUAUGUUACGCCGUUCGGAUCUGCACUU", "log2 enrichment": -0.481}
{"Sequence": "UAACUUUAGAGGAGGAUCUGAUGGAUAUGCCAGUGGACGUGGAUUUGGGGAUGGCUAUAAUGGGUAUGGAGGAGGACCUGGAGGUGGCAA", "log2 enrichment": 0.33}
{"Sequence": "AAGUCCUGUGCUACACAUCGUAUGUACCGAAUCAAAUUUAAACCCCCAAAUUUAAAAAAGUAUUAUGUUACGCCGUUCGGAUCUGCACUU", "log2 enrichment": 0.159}
{"Sequence": "AUGGAUGACCCCUCUGUGGGCCCCAAGAUCCCCCAGGCUUUGGAGAAGAUCCUGCAGCUGAAGGAGAGCCGCCAGGAAGAGAUGAAUUCU", "log2 enrichment": -1.22}
{"data": "Sample 3", "target": "ABI1, truncated, D143A, DHFR fusion (Arabidopsis thaliana)", "method": "DHFR PCA, deep sequencing", "sample": "yeast", "setting": "methotrexate growth selection, single substitutions", "with": "(+)-ABA 0.0091 µM", "reference": "wild-type fitted maximum", "reading": "higher = stronger binding", "starting sequence": "PYL1, truncated, DHFR fusion (Arabidopsis thaliana); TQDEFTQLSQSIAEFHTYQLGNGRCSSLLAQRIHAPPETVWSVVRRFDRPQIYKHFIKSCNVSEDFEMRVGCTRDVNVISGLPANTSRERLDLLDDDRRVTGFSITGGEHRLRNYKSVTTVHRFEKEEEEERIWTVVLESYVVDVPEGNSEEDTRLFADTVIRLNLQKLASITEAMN; partner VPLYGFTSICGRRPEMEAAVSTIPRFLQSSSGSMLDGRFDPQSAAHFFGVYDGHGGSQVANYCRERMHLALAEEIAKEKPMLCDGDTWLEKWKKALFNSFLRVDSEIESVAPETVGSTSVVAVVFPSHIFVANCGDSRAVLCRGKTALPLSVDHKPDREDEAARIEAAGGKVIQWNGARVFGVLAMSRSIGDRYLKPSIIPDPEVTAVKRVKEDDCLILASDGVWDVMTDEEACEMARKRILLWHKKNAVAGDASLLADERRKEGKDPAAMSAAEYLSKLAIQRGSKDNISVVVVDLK"}
{"Substitution": "V70F", "relative binding score": "-1.65%"}
{"Substitution": "L93I", "relative binding score": "56.2%"}
{"Substitution": "I162S", "relative binding score": "-1.43%"}
{"Substitution": "F56Q", "relative binding score": "1.02%"}
{"data": "Mixed results"}
{"Substance": "PhoQ, residues 284 288 289 292 302 303 MLMVEA", "target": "PhoP, residues 12 14 15 18 19 LHSVW (Escherichia coli, UniProt P23836)", "assay": "Sort-seq, item: YFP reporter", "test system": "E. coli", "conditions": "PhoQ-PhoP variant library, with: 10 µM Mg2+", "scale": "reference: high Mg2+ state, higher = stronger signaling", "endpoint": "fold induction", "value": 3.63}
{"note": "For quick reference, copied from above (sample 1):"}
{"Substitution": "E12A", "normalised enrichment score": 0.0674}
